Assay results from different studies.
Protocols differ between the studies behind these lines. “And” joins repeats or separate records; there may be more than shown. Numbers after ± are the reported error.

COCC1CN(C2CCN(c3cc(OC)c(Nc4ncc(Br)c(Nc5ccc6c(c5P(C)(C)=O)OCCO6)n4)cc3C)CC2)C1  Cmin (EGFR-mutant NSCLC patients, plasma; oral, 30 mg multiple doses, geometric mean): 242 ng/mL
C=C(NC(=O)c1csc(-c2nc3c(cc2O)-c2nc(cs2)C(=O)NC(C(C)O)C(=O)NC(=C(C)OC)c2nc(cs2)C(=O)NC2c4nc(cs4)C(=O)NC(COC(=O)c4c5c6c(cccc6n4O)COC(=O)C(OC4CC(C)(O)C(N(C)C)C(C)O4)C2OC5)c2nc-3cs2)n1)C(N)=O (centres unmarked)  AUC(0-t) (female cynomolgus monkey, plasma; intravenous, 1 mg/kg, single dose, infusion): 7930 ng·h/mL
C=CC(=O)N1CCCC(n2c(=O)c3ncccc3n(Cc3ccc(Oc4ccccc4)cc3)c2=O)C1 (centres unmarked)  plasma concentration (BALB/c mice, male, plasma; oral, 200 mg/kg, 2 h): 8580 ng/mL
CN(O)C(=O)CCC(=O)NCCCN(CCCCN(CCCNC(=O)CCC(=O)N(C)O)C(=O)CCC(=O)N(C)O)C(=O)CCC(=O)N(C)O.[89Zr]  intact compound (0.9 % NaCl saline; 5 days, pH 4.5, 37 °C): 99 ± 1%
C=CC(=O)Nc1cccc(Cn2ncc3cnc(Nc4cnn(CCOC)c4)nc32)c1  remaining compound (dog, Beagle, both sexes, whole blood; 5 µM, 15 min): 89%
CCCCN1C(=O)c2cccc3c(NCCCCCN4CCOCC4)ccc(c23)C1=O  molar extinction coefficient (toluene): 4940 M⁻¹ cm⁻¹
C/C(N)=N/C(=N\S(=O)(=O)c1ccc(C(F)(F)F)cc1)N1C[C@H](c2ccccc2)C(c2ccc(Cl)cc2)=N1  bioavailability (beagle dog, plasma; oral, 6 mg/kg): 44%
COc1cccc(OC)c1-c1cc(C(=O)NC2(C(=O)O)C3CC4CC(C3)CC2C4)nn1-c1ccc(C(=O)N(C)CCOCCN(C)C(=O)[C@H](CCCCNC(=O)[C@H](CC(C)C)NC(=O)C2OC2C(=O)O)NC(=O)CN2CCN(CC(=O)[O-])CCN(CC(=O)[O-])CCN(CC(=O)[O-])CC2)cc1C(C)C.[177Lu+3] (mixture of isomers)  tumour-to-brain ratio (mouse, HT-29 xenograft; 4 h post injection, biodistribution; relative to: tumour over brain uptake): 36
O=C1CCC(N2Cc3cc(C(=O)O)c(F)cc3C2=O)C(=O)N1 (centres unmarked)  plasma concentration (CD-1 mice; intravenous, 1 mg/kg, 24 h): not detected
CCN(CC)c1ccc2c(c1)O[B-]1(c3ccccc3)OC(=O)C(c3ccccc3)=N[N+]1=C2 (centres unmarked)  molar absorption coefficient (toluene): 60000 M⁻¹ cm⁻¹
O=C([O-])CN1CCN(CC(=O)[O-])CCN(CC(CCCc2ccccc2[N+](=O)[O-])N(CC(=O)[O-])CC(=O)[O-])CC1.[177Lu+3] (centres unmarked)  intact radiolabelled complex (TLC; human serum; 3 h, pH 7, 37 °C): 100%
C[C@@H](Nc1c(-c2c(F)cc(C#N)cc2F)c(Cl)nc2ncnn12)C(C)(C)C  organ weight (measured: brain, heart, liver, kidney, spleen; wild-type mice; intraperitoneal, 10 to 20 mg/kg twice weekly, 3 weeks): no effect
CNC(=O)C[C@H](Cc1ccc(C#N)cc1)NC(=O)c1cc(-c2ccc(CN[C@H](C)c3ccc(C)cc3)o2)ccc1Cl  blood clearance (human liver microsomes; 1 µM): 20 mL/min/kg
CC[C@H](C)[C@@H]1NC(=O)[C@H](Cc2ccc(O)cc2)NC(=O)CCCSC[C@@H](C(=O)N(CC(=O)N[C@@H](CC(C)C)C(=O)NCC(N)=O)Cc2ccc(F)cc2)NC(=O)[C@H](CC(N)=O)NC(=O)[C@H](CCC(N)=O)NC1=O  AUC(0-t) (human, plasma; intranasal, 400 µg, single dose): 0.088 ng·h/mL
CC(C)[C@H](NC(=O)[C@H](Cc1c[nH]c2ccccc12)NC(=O)[C@H](CCCNC(=N)N)NC(=O)[C@H](CCCNC(=N)N)NC(=O)[C@@H](NC(=O)[C@@H](NC(=O)[C@H](CCCNC(=N)N)NC(=O)[C@@H](NC(=O)[C@@H](NC(=O)[C@H](CCCNC(=N)N)NC(=O)[C@H](CCCNC(=N)N)NC(=O)[C@@H](NC(=O)[C@H](Cc1c[nH]c2ccccc12)NC(=O)[C@H](CCCNC(=N)N)NC(=O)[C@H](CCCNC(=N)N)NC(=O)[C@@H](NC(=O)[C@H](CCCNC(=N)N)NC(=O)[C@H](CCCNC(=N)N)NC(=O)[C@@H](NC(=O)[C@H](Cc1c[nH]c2ccccc12)NC(=O)[C@H](CCCNC(=N)N)NC(=O)[C@@H](N)CCCNC(=N)N)C(C)C)C(C)C)C(C)C)C(C)C)C(C)C)C(C)C)C(C)C)C(=O)N[C@@H](CCCNC(=N)N)C(=O)N[C@@H](CCCNC(=N)N)C(=O)O  blood urea nitrogen (CD1 mouse, plasma; intravenous, 15 mg/kg, 24 h, [14C]-labelled compound): 16.3 mg/dL
OC1(C(F)(F)F)CCN(c2nc(Nc3ccnc(C(F)(F)F)c3)nc(-c3cccc(C(F)(F)F)n3)n2)C1 (centres unmarked)  MRT(0-inf) (Sprague-Dawley rat, both sexes, plasma; oral gavage, 5 mg/kg, day 1): 24.6 ± 4.21 h
CCCCN1C(=O)c2cccc3c(NCCCCN4CCOCC4)ccc(c23)C1=O  molar extinction coefficient (chloroform): 5700 M⁻¹ cm⁻¹
C=CC(=O)Nc1cc(Nc2nccc(-c3c[nH]c4ccccc34)n2)c(OC)cc1N(C)CCN(C)C  recovery (storage stability; human dried blood spots; 5 h, -80 °C, high QC level): 96.2%
O=C(NS(=O)(=O)c1cccs1)c1cc2ccccc2n1Cc1ccc(Br)c2ccccc12  body weight (KM mouse, chronic hyperuricaemia model; dose not given, day 0): 26 g and 25.2 g and 24.4 g
O=C(Nc1cnccc1-c1ccc([18F])nc1)c1ccnc(NC(=O)C2CC2)c1  SUV (FVB/NJ mice (both sexes), cerebellum; intravenous, dose not given, 120 min): 0.023
O=[N+]([O-])c1ccc(/C=N/Nc2nnc(N/N=C/c3ccc([N+](=O)[O-])o3)c3ccccc23)o1  haemolysis (haemolysis; human; 1 mM, 45 min): 12.4%
O=C(Nc1cnccc1-c1ccc([18F])cc1)c1ccnc(NC(=O)C2CC2)c1  SUV (ex vivo gamma counting; GSK-3β transgenic mice, late-stage, cortex; intravenous, 1.26 MBq/animal, 120 min, mean, no P-gp inhibitor): 0.1
CCCCN1C(=O)c2cccc3c(NCCCCCCCCCCN4CCOCC4)ccc(c23)C1=O  molar extinction coefficient (dioxane): 12600 M⁻¹ cm⁻¹
COc1ccc2c(c1)CCn1c[n+]3c(c1-2)-c1ccc(OC)cc1CC3  haemoglobin (female NSG mice, blood; 6 mg/kg, day 7, 5 days per week): 13.6 ± 1 g/dL
CC(C)C[C@H](NC(=O)[C@H](CCCN)NC(=O)CNC(=O)[C@@H](NC(=O)[C@H](C)NC(=O)[C@@H]1CSCSC[C@H](NC(=O)CC[C@H](N)C(=O)O)C(=O)N[C@@H](CC(N)=O)C(=O)N[C@@H]([C@@H](C)O)C(=O)N[C@@H](C)C(=O)N[C@@H]([C@@H](C)O)C(=O)N1)[C@@H](C)O)C(=O)N[C@@H](C)C(=O)N[C@@H](CCC(=O)O)C(=O)N[C@@](C)(Cc1ccccc1)C(=O)N[C@@H](CC(C)C)C(=O)N[C@H](C(=O)N[C@@H](CCCNC(=N)N)C(=O)N[C@@H](CO)C(=O)N[C@@H](CO)C(=O)N[C@@H](CC(N)=O)C(=O)N(C)[C@@H](CC(N)=O)C(=O)N[C@@H](Cc1ccccc1)C(=O)NCC(=O)N1CCC[C@H]1C(=O)N[C@@H](CCCCNC(=O)CC[C@H](NC(=O)CC[C@H](NC(=O)CCCCCCCCCCCCCCCCCCC(=O)O)C(=O)O)C(=O)O)C(=O)N[C@@H](CC(C)C)C(=O)N1CCC[C@H]1C(=O)N1CCC[C@H]1C(=O)N[C@H](C(=O)N[C@@H](CCC(=O)O)C(=O)N[C@H](C(=O)NCC(=O)N[C@@H](CO)C(=O)N[C@@H](CC(N)=O)C(=O)N[C@H](C(=O)N[C@@H](Cc1ccc(O)cc1)C(N)=O)[C@@H](C)O)C(C)C)[C@@H](C)O)C(C)C  AUC(0-tlast) (healthy human, plasma; subcutaneous, 4 mg single dose, geometric LS mean): 209000 ng·h/mL
COc1cc(-c2cc(=O)c3ccc(OCCCn4c(Cl)nc5ccccc54)cc3o2)cc(OC)c1OC  AST (C57BL/J mice, healthy, serum; intravenous, 10 mg/kg every other day, 10 days): 203 ± 44.2 U/L
CCC(=O)N(C)c1ccc(Cl)c(Cl)c1  plasma concentration (female C57BL/6 mice; intravenous, 2 mg/kg, 0.5 h): 148 ng/mL
CCCCN1C(=O)c2cccc3c(NCCCCCCN4CCOCC4)ccc(c23)C1=O  molar extinction coefficient (dioxane): 12300 M⁻¹ cm⁻¹
Cc1cc(-c2ccc(C(=O)[C@@H]3CCCC[C@H]3C(=O)Nc3cnn4c3C(=O)NCC4)cc2)[nH]n1  recovery of radioactivity (human, faeces; oral, 200 mg; relative to: dose): 75.8% and 82.1% and 81.3% and 76.8% and 74.4% and 85.4%
CCCCN1C(=O)c2cccc3c(NCCCCCCCCN4CCOCC4)ccc(c23)C1=O  molar extinction coefficient (dichloromethane): 10200 M⁻¹ cm⁻¹
NCCCCCC(=O)N(CCC(=O)O)CC(=O)N(CCC(=O)O)CC(=O)N(CCC(=O)O)CC(=O)N(CCC(=O)O)CC(=O)N(CCC(=O)O)CC(=O)N(CCC(=O)O)CC(=O)N(CCc1ccc(Cl)cc1)CC(=O)N(CCc1ccc(Cl)cc1)CC(=O)N(CCc1ccc(Cl)cc1)CC(=O)N(CCc1ccc(Cl)cc1)CC(=O)N(CCc1ccc(Cl)cc1)CC(=O)N(CCc1ccc(Cl)cc1)CC(N)=O  equilibrium concentration (Ce) (in situ AFM; HCl solution on mica; pH 2.8, room temperature, 2D phase solubility): 0.16 µM
[123I]c1ccc2nc(-c3ccc(-n4ccnn4)nc3)cn2c1  tracer uptake (male Wistar rat, muscle; intravenous, 4 MBq, 1 h): 0.045 %ID/g

Excerpt of the above:
O=C(NS(=O)(=O)c1cccs1)c1cc2ccccc2n1Cc1ccc(Br)c2ccccc12  body weight (KM mouse, chronic hyperuricaemia model; dose not given, day 0): 26 g and 25.2 g and 24.4 g
O=C1CCC(N2Cc3cc(C(=O)O)c(F)cc3C2=O)C(=O)N1 (centres unmarked)  plasma concentration (CD-1 mice; intravenous, 1 mg/kg, 24 h): not detected
CCCCN1C(=O)c2cccc3c(NCCCCCCCCN4CCOCC4)ccc(c23)C1=O  molar extinction coefficient (dichloromethane): 10200 M⁻¹ cm⁻¹
CC(C)C[C@H](NC(=O)[C@H](CCCN)NC(=O)CNC(=O)[C@@H](NC(=O)[C@H](C)NC(=O)[C@@H]1CSCSC[C@H](NC(=O)CC[C@H](N)C(=O)O)C(=O)N[C@@H](CC(N)=O)C(=O)N[C@@H]([C@@H](C)O)C(=O)N[C@@H](C)C(=O)N[C@@H]([C@@H](C)O)C(=O)N1)[C@@H](C)O)C(=O)N[C@@H](C)C(=O)N[C@@H](CCC(=O)O)C(=O)N[C@@](C)(Cc1ccccc1)C(=O)N[C@@H](CC(C)C)C(=O)N[C@H](C(=O)N[C@@H](CCCNC(=N)N)C(=O)N[C@@H](CO)C(=O)N[C@@H](CO)C(=O)N[C@@H](CC(N)=O)C(=O)N(C)[C@@H](CC(N)=O)C(=O)N[C@@H](Cc1ccccc1)C(=O)NCC(=O)N1CCC[C@H]1C(=O)N[C@@H](CCCCNC(=O)CC[C@H](NC(=O)CC[C@H](NC(=O)CCCCCCCCCCCCCCCCCCC(=O)O)C(=O)O)C(=O)O)C(=O)N[C@@H](CC(C)C)C(=O)N1CCC[C@H]1C(=O)N1CCC[C@H]1C(=O)N[C@H](C(=O)N[C@@H](CCC(=O)O)C(=O)N[C@H](C(=O)NCC(=O)N[C@@H](CO)C(=O)N[C@@H](CC(N)=O)C(=O)N[C@H](C(=O)N[C@@H](Cc1ccc(O)cc1)C(N)=O)[C@@H](C)O)C(C)C)[C@@H](C)O)C(C)C  AUC(0-tlast) (healthy human, plasma; subcutaneous, 4 mg single dose, geometric LS mean): 209000 ng·h/mL
